Assay results gathered from unrelated publications.
Each line is one published result; not all experiments were run side by side. ± gives the spread as reported.
Cone cGMP-gated channel: Cone cGMP-gated channel (Morone saxatilis, UniProt Q3I0N1+Q3I0N2)
IDE: Insulin-degrading enzyme (IDE, Homo sapiens, UniProt P14735)
FPR1: fMet-Leu-Phe receptor (FPR1, Homo sapiens, UniProt P21462)
PYL4: PYL4 (Arabidopsis thaliana, UniProt O80920)
Chain of UniProt O80920 (whole entry, looked up): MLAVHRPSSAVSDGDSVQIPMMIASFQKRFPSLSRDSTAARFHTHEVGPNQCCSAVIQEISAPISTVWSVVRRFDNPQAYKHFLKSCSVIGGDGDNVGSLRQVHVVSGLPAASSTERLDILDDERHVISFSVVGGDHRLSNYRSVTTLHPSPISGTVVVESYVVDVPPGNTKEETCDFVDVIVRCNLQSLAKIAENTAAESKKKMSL
ADRB2: Beta-2 adrenergic receptor (ADRB2, Homo sapiens, UniProt P07550)
Ppard: Peroxisome proliferator-activated receptor delta (Ppard, Mus musculus, UniProt P35396)
Chain of UniProt P35396 (whole entry, looked up): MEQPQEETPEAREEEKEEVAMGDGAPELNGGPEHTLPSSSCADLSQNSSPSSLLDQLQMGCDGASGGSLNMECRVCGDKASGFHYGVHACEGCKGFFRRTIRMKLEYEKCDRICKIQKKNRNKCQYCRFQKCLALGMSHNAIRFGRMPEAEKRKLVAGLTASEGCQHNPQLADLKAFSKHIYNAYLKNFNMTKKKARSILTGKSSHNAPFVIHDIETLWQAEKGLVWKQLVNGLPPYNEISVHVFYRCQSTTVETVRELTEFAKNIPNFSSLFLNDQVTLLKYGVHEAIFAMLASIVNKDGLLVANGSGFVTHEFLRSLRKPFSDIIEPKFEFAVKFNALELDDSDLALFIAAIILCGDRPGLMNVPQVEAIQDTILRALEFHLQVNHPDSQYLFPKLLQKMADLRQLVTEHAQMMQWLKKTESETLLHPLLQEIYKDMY
ATP2A2: ATP2A2 (Sus scrofa, UniProt P11607)
Chain of UniProt P11607 (whole entry, looked up): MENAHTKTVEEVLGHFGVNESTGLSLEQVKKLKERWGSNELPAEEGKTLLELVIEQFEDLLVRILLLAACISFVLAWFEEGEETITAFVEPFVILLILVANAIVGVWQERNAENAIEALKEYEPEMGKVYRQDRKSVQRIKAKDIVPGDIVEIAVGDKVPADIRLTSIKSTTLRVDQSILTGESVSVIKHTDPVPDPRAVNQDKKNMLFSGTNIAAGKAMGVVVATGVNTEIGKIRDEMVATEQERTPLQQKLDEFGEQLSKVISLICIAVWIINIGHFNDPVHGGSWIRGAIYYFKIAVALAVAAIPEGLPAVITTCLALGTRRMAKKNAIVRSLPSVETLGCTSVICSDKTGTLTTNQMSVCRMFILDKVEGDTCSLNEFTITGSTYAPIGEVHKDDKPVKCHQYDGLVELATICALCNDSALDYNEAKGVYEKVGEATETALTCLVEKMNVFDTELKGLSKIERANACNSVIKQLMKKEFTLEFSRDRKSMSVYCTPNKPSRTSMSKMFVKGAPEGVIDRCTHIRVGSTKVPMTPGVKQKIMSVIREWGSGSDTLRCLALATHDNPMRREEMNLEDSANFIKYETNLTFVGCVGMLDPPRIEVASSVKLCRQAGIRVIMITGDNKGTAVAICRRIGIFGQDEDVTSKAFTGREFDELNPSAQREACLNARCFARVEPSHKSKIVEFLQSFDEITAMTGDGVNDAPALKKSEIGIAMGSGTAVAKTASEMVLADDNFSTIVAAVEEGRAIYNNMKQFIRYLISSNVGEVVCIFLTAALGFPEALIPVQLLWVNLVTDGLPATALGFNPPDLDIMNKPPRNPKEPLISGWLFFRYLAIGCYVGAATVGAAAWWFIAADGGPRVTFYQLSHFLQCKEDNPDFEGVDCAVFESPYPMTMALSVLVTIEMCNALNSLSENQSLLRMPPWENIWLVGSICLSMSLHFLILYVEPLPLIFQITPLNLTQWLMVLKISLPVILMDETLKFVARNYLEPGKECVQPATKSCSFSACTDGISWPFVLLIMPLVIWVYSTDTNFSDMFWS
Chain of UniProt P30542 (whole entry, looked up): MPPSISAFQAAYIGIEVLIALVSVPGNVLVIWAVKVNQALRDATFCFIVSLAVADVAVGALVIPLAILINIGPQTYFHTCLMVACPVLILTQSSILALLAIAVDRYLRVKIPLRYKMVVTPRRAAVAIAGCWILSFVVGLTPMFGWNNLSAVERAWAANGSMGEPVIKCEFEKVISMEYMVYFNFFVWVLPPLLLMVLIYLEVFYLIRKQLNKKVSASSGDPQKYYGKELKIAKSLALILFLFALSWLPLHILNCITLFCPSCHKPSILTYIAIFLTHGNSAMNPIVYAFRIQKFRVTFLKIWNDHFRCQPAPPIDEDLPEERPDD
Chain of UniProt P35414 (whole entry, looked up): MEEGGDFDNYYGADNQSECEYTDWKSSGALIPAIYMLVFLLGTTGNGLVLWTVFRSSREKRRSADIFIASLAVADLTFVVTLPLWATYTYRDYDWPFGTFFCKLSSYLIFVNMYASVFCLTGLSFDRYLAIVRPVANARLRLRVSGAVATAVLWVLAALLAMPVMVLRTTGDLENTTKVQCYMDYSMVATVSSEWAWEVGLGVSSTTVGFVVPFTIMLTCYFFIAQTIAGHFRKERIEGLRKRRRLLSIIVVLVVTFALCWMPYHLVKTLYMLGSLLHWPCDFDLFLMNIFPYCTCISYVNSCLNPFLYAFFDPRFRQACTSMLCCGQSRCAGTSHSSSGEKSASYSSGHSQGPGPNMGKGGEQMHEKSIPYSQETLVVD
Chain of UniProt Q9H244 (whole entry, looked up): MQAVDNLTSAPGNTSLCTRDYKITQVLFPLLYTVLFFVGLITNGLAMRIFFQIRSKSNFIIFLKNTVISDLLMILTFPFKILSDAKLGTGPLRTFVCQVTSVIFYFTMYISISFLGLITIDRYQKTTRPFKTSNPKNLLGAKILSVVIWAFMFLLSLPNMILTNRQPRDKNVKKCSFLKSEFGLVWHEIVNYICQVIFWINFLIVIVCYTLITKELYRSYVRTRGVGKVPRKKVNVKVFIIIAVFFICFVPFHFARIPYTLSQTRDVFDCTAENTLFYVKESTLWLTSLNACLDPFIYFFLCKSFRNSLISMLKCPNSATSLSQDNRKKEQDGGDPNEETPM
Chain of UniProt Q13258 (whole entry, unmodified, looked up): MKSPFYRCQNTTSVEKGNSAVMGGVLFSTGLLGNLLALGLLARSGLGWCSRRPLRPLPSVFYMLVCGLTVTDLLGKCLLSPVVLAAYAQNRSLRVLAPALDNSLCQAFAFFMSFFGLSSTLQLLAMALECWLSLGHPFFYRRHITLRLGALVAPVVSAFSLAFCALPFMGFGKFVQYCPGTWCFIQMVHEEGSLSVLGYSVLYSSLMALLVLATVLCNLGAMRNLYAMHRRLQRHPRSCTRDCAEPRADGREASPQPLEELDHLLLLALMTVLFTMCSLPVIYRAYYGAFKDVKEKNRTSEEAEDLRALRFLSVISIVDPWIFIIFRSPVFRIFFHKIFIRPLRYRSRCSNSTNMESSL
Chain of UniProt P17086 (whole entry, looked up): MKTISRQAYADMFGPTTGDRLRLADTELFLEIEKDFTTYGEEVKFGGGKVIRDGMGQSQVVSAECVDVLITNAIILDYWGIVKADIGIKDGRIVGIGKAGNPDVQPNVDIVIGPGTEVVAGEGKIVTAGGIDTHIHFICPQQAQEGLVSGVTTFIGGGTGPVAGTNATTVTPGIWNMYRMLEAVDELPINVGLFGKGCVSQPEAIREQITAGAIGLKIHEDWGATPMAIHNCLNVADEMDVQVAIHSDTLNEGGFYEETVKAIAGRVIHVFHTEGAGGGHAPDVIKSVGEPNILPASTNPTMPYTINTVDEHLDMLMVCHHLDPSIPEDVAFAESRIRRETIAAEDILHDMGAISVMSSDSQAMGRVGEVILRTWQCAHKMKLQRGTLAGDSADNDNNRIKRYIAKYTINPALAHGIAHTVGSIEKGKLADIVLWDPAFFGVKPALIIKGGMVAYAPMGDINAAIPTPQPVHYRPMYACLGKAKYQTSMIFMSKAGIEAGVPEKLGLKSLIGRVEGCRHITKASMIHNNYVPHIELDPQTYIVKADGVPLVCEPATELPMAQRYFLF
Chain of UniProt Q704Y3 (whole entry, unmodified, looked up): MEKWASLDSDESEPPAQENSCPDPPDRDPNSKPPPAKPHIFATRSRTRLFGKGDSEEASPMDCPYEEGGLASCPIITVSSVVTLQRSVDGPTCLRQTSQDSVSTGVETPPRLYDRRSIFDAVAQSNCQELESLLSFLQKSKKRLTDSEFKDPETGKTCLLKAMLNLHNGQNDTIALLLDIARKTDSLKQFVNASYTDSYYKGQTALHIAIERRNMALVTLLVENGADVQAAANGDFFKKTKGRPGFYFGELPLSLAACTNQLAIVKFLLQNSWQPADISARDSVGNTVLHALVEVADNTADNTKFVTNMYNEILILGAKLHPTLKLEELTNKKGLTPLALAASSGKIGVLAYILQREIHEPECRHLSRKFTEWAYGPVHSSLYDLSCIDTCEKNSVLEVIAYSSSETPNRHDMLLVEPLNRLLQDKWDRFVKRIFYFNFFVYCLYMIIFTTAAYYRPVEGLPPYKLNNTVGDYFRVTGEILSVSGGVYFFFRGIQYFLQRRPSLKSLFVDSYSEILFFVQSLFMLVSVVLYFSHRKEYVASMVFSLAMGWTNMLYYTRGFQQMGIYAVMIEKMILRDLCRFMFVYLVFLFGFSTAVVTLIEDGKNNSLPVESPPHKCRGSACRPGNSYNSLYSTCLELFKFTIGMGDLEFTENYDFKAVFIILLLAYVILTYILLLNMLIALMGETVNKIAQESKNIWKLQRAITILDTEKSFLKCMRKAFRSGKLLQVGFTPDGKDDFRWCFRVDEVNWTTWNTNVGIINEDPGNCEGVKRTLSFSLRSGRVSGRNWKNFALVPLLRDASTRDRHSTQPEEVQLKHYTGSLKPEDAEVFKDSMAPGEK
Chain of UniProt Q8TDV5 (whole entry, looked up): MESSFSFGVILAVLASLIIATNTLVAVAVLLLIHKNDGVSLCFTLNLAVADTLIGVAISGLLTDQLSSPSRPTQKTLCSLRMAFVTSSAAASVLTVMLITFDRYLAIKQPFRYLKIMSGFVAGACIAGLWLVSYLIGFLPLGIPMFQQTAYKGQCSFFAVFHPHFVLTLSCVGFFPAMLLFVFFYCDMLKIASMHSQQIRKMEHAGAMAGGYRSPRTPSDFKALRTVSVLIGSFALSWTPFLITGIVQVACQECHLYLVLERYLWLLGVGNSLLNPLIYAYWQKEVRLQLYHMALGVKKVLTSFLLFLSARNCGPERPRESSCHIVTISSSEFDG

With Nc1nc(O)c2nc(Br)n([C@@H]3O[C@@H]4COP(=O)(O)O[C@H]4[C@H]3O)c2n1 the EC50 was 77 µM (Cone cGMP-gated channel; cGMP-gated current, suction electrode; striped bass (Morone saxatilis), single cone outer segment; together with: Ca2+ 20 µM).
The EC50 of Cc1ccccc1S(=O)(=O)N1CCCCN2[C@H](CO)[C@@H](c3ccc(-c4cccc(F)c4C)cc3)[C@@H]2C1 is reported as 0.07 µM (IDE; enzyme activity, inhibitor, fluorescence kinetic; together with: Mca-RPPGFSAFK(Dnp)-OH substrate).
For CCCCCCOC(=O)c1ccccc1C(=O)c1ccc(N(CC)CC)cc1O, the EC50 was > 100 µM (Androgen receptor (AR, Homo sapiens, UniProt P10275); reporter gene, agonist; GR knock-out cells).
N#Cc1ccc(C[C@@H](NC(=O)c2cc3ccc(F)cc3[nH]2)C(=O)N2CCc3ccccc32)cc1 gave an EC50 of > 50 µM (FPR1; calcium mobilization, agonist; HL-60 transfected with FPR1; inactive up to 50 µM).
O=C(Cc1cc(C2CC2)c(-n2cc(CNC(=O)c3csc(Br)c3)nn2)c(C2CC2)c1)NC1(C(=O)O)CCCCC1 gave an EC50 of 0.247 ± 0.038 µM (PYL4; phosphatase activity recovery, antagonist; together with: HAB1, ABA 5000 nM).
CCCc1cc(C)[nH]c(=O)c1CNC(=O)c1cc(-c2ccc(N3CCN(C(C)C)CC3)nc2)cc2c1cnn2C(C)C has a viability of 113% (HBL-1; 0.1 µM, 120 h).
CSc1nc(N)c2ncn([C@@H]3O[C@H](COP(=O)(O)OP(=O)(O)O)[C@@H](O)[C@H]3O)c2n1 has an EC50 of 0.000944 µM (P2Y purinoceptor 12 (P2RY12, Homo sapiens, UniProt Q9H244); agonist, cell-based).
CSc1ccc(C(=O)/C=C/c2cc(C)c(OC(C)(C)C(=O)O)c(C)c2)cc1 has an EC50 of 1 µM (Peroxisome proliferator-activated receptor gamma (PPARG, Homo sapiens, UniProt P37231); receptor activation, agonist, luciferase reporter; serum-free, species human).
The EC50 of CO[C@H]1CN(C)C(=O)c2cc(NC(=O)c3ccc(Oc4ccccc4)cc3)ccc2OC[C@H](C)NC[C@H]1C is reported as 2.8 µM (IDE; enzyme activity, inhibitor, fluorogenic kinetic; together with: Mca-RPPGFSAFK(Dnp)-OH substrate).
With N#Cc1ccc(C[C@H](Nc2nnc(-c3ccc(F)cc3)o2)C(=O)N2CCc3ccccc32)cc1 the EC50 was > 50 µM (FPR1; calcium mobilization, agonist; HL-60 transfected with FPR1; inactive up to 50 µM).
CCn1c(-c2nc3cc(C(=O)N4CCC[C@@H](N)C4)cc(OC)c3n2C)cc2cccnc21 has an EC50 of > 31.6 µM (ADRB2; agonist, TR-FRET).
CCCCC[C@H](O)/C=C/[C@H]1[C@H](O)CC(=O)[C@@H]1C/C=C\CCCC(=O)O has an EC50 of 0.178 µM (Prostaglandin E2 receptor EP1 subtype (PTGER1, Homo sapiens, UniProt P34995, F189A); IP1 accumulation, agonist; AD293; EP1 F189A mutant).
For CCCCCCCC/C=C\CCCCCCCC(=O)NCCc1ccc(O)c(O)c1, the EC50 was 0.09 ± 0.02 µM (Transient receptor potential cation channel subfamily V member 1 (Trpv1, Mus musculus, UniProt Q704Y3, R580K); ion current, agonist, whole-cell patch clamp; 24 °C, R580K, +80 mV).
The EC50 of Cc1cccc(-c2ccc([C@H]3[C@@H](CO)N4CCCCN(Cc5cccnc5)C[C@H]34)cc2)c1 is reported as 10.7 µM (IDE; enzyme activity, inhibitor, fluorogenic kinetic; together with: Mca-RPPGFSAFK(Dnp)-OH substrate).
For N#Cc1ccc(C[C@H](Nc2nnc(-c3ccc(Br)cc3)s2)C(=O)N2CCc3ccccc32)cc1, the EC50 was > 50 µM (FPR1; calcium mobilization, agonist; HL-60 transfected with FPR1; inactive up to 50 µM).
The EC50 of CCCCC[C@H](O)/C=C/[C@H]1C(=O)C[C@H](O)[C@@H]1C/C=C\CCCC(=O)O is reported as > 10 µM (Prostaglandin D2 receptor (PTGDR, Homo sapiens, UniProt Q13258, C130R/D319N/del234-257/H263A); Gs protein activation, agonist, BRET).
For O=C(Cc1cc(C2CC2)c(-n2cc(CNC(=O)c3ccc4ccccc4c3)nn2)c(C2CC2)c1)NC1(C(=O)O)CCCCC1, the EC50 was 0.669 ± 0.089 µM (PYL4; phosphatase activity recovery, antagonist; together with: HAB1, ABA 5000 nM).
Cc1ccccc1-c1ccc([C@H]2[C@@H]3CN(S(=O)(=O)c4cn(C)cn4)C[C@H]2N3)cc1 gave an EC50 of 3.9 µM (IDE; enzyme activity, inhibitor, fluorogenic kinetic; together with: Mca-RPPGFSAFK(Dnp)-OH substrate).
The IC50 of Cc1cc(=O)c2cc(-c3ccc(OC(F)(F)F)cc3)ccc2[nH]1 is reported as 1.91 ± 0.264 µM (Plasmodium yoelii; 17XL; 384-well).
With N#Cc1ccc(C[C@H](Nc2nnc(-c3ccc(F)cc3)s2)C(=O)N2CCc3ccccc32)cc1 the EC50 was > 50 µM (FPR1; calcium mobilization, agonist; HL-60 transfected with FPR1; inactive up to 50 µM).
For Cc1cccc(-c2ccc([C@@H]3[C@@H](CO)N4C(=O)CN(C(=O)Cc5ccccn5)C[C@@H]34)cc2)c1, the EC50 was 3.3 µM (IDE; enzyme activity, inhibitor, fluorogenic kinetic; together with: Mca-RPPGFSAFK(Dnp)-OH substrate).
With O=C(Cc1cc(C2CC2)c(-n2cc(CNC(=O)c3cccc4c3OC(F)(F)O4)nn2)c(C2CC2)c1)NC1(C(=O)O)CCCCC1 the EC50 was 0.726 ± 0.077 µM (PYL4; phosphatase activity recovery, antagonist; together with: HAB1, ABA 5000 nM).
N#Cc1ccc(C[C@H](Nc2ncc(-c3ccc(F)cc3)o2)C(=O)N2CCc3ccccc32)cc1 has an EC50 of > 50 µM (FPR1; calcium mobilization, agonist; HL-60 transfected with FPR1; inactive up to 50 µM).
For Cn1cc2c(C(=O)O)ccc(NS(=O)(=O)c3ccc(OCC4CCC4)c(Cl)c3)c2n1, the EC50 was > 10 µM (ADRB2; antagonist).
N#Cc1ccc(C[C@H](NC(=O)c2cc3ccccc3[nH]2)C(=O)N2CCc3ccccc32)cc1 gave an EC50 of > 50 µM (FPR1; calcium mobilization, agonist; HL-60 transfected with FPR1; inactive up to 50 µM).
With Cc1cccc(-c2ccc([C@@H]3[C@@H](CO)N4C(=O)CN(C(=O)c5cnccn5)C[C@@H]34)cc2)c1 the EC50 was 5 µM (IDE; enzyme activity, inhibitor, fluorogenic kinetic; together with: Mca-RPPGFSAFK(Dnp)-OH substrate).
O=C(O)CCCc1ccccc1 has a viability of 103% (HBL-1; 1 µM, 120 h).
For CCCCCCCC/C=C\CCCCCCCC(=O)NCCO, the EC50 was 1.92 µM (Glucose-dependent insulinotropic receptor (GPR119, Homo sapiens, UniProt Q8TDV5); agonist, cell-based).
For O=C(Cc1cc(C2CC2)c(-n2cc(CNC(=O)c3cc(Br)co3)nn2)c(C2CC2)c1)NC1(C(=O)O)CCCCC1, the EC50 was 0.197 ± 0.037 µM (PYL4; phosphatase activity recovery, antagonist; together with: HAB1, ABA 5000 nM).
CCO[C@H](COc1ccc(C(F)(F)F)cc1)CSc1ccc(OCC(=O)O)c(C)c1 gave an EC50 of 0.3 µM (Ppard; reporter gene, agonist, luciferase reporter; mouse; serum-free).
N#Cc1ccc(C[C@@H](NC(=O)c2cc3cc([N+](=O)[O-])ccc3[nH]2)C(=O)N2CCc3ccccc32)cc1 has an EC50 of > 50 µM (FPR1; calcium mobilization, agonist; HL-60 transfected with FPR1; inactive up to 50 µM).
O=C(O)CCCc1cc2cc(Cl)ccc2n1S(=O)(=O)c1ccc2ncsc2c1 has an EC50 of 1.4 µM (Ppard; reporter gene, agonist, luciferase reporter; mouse; serum-free).
FC1(F)Oc2ccc(CCOCCCCCc3ccccc3)cc2O1 has an EC50 of ~2 µM (ATP2A2; ATPase activity, activator, NADH-coupled enzyme; enriched microsomes).
For CC(=O)NO, the EC50 was 68300 ± 400 µM (Urease subunit alpha (ureC, Proteus mirabilis, UniProt P17086)).
With Cn1cc(-c2cnc(N)n3nc(-c4ccco4)nc23)ccc1=O the EC50 was > 100 µM (Adenosine receptor A1 (ADORA1, Homo sapiens, UniProt P30542)).
NC(=O)CC[C@@H]1NC(=O)/C=C/C(=O)N[C@H](C(=O)NCCOCCOCCNC(=O)c2ccc3c(c2)C(=O)OC32c3ccc(O)cc3Oc3cc(O)ccc32)CCCCNC(=O)[C@@H](Cc2ccc(C(=O)c3ccccc3)cc2)NC(=O)[C@H](CC2CCCCC2)NC1=O gave an EC50 of 0.1 µM (IDE; enzyme activity, inhibitor, fluorescence kinetic; together with: Mca-RPPGFSAFK(Dnp)-OH substrate).
CCOCc1nc(O)c(-c2nnc(Cc3ccc(Cl)cn3)o2)c(O)c1-c1c(OC)cccc1OC has an EC50 of 0.0002 ± 2e-05 µM (Apelin receptor (APLNR, Homo sapiens, UniProt P35414); GαoA activation, agonist, BRET biosensor; HEK293).
For O=C(Cc1cc(C2CC2)c(-n2cc(CNC(=O)c3cnc(Br)s3)nn2)c(C2CC2)c1)NC1(C(=O)O)CCCCC1, the EC50 was 0.284 ± 0.049 µM (PYL4; phosphatase activity recovery, antagonist; together with: HAB1, ABA 5000 nM).
With COc1cccc2c1C(=O)c1c(O)c3c(c(O)c1C2=O)C[C@@](O)(C(=O)CO)C[C@@H]3O[C@H]1C[C@H](NC(=O)[C@@H]2CCCN2C(=O)CN)[C@H](O)[C@H](C)O1 the Cmax was 0.11 ± 0.033 µM (healthy mouse, plasma; intravenous, 23.6 mg/kg PhAc-ALGP-Dox).
Cc1cccc(-c2ccc([C@@H]3[C@@H](CO)N4CCCCN(Cc5cncnc5)C[C@@H]34)cc2)c1 gave an EC50 of 11.9 µM (IDE; enzyme activity, inhibitor, fluorogenic kinetic; together with: Mca-RPPGFSAFK(Dnp)-OH substrate).
Cc1[nH]c(C)c(-c2ccc(-c3ccc(OC(F)(F)F)cc3)cc2)c(=O)c1Cl gave an IC50 of 0.137 ± 0.02 µM (Plasmodium yoelii; 17XL; 384-well).
Nc1nc2c(ncn2[C@@H]2O[C@@H]3COP(=O)(O)O[C@H]3[C@H]2O)c(=O)[nH]1 has an EC50 of 121 ± 9.3 µM (Cone cGMP-gated channel; cGMP-gated channel current, agonist, suction electrode; Morone saxatilis, single cone outer segment; together with: 0.4 mM zaprinast, 1 mM Mg2+, 0 µM Ca2+).
The EC50 of Cc1ccc(C(=O)NCc2cn(-c3c(C4CC4)cc(CC(=O)NC4(C(=O)O)CCCCC4)cc3C3CC3)nn2)o1 is reported as 0.549 ± 0.084 µM (PYL4; phosphatase activity recovery, antagonist; together with: HAB1, ABA 5000 nM).
With c1ccc(CCCCCOCCc2ccc3c(c2)CCCN3)cc1 the EC50 was ~4 µM (ATP2A2; ATPase activity, activator, NADH-coupled enzyme; enriched microsomes).

For quick reference, copied from above:
The EC50 of CO[C@H]1CN(C)C(=O)c2cc(NC(=O)c3ccc(Oc4ccccc4)cc3)ccc2OC[C@H](C)NC[C@H]1C is reported as 2.8 µM (IDE; enzyme activity, inhibitor, fluorogenic kinetic; together with: Mca-RPPGFSAFK(Dnp)-OH substrate).
For Cc1cccc(-c2ccc([C@@H]3[C@@H](CO)N4C(=O)CN(C(=O)Cc5ccccn5)C[C@@H]34)cc2)c1, the EC50 was 3.3 µM (IDE; enzyme activity, inhibitor, fluorogenic kinetic; together with: Mca-RPPGFSAFK(Dnp)-OH substrate).
For CCCCCCCC/C=C\CCCCCCCC(=O)NCCc1ccc(O)c(O)c1, the EC50 was 0.09 ± 0.02 µM (Transient receptor potential cation channel subfamily V member 1 (Trpv1, Mus musculus, UniProt Q704Y3, R580K); ion current, agonist, whole-cell patch clamp; 24 °C, R580K, +80 mV).
With Cc1cccc(-c2ccc([C@@H]3[C@@H](CO)N4C(=O)CN(C(=O)c5cnccn5)C[C@@H]34)cc2)c1 the EC50 was 5 µM (IDE; enzyme activity, inhibitor, fluorogenic kinetic; together with: Mca-RPPGFSAFK(Dnp)-OH substrate).
CSc1ccc(C(=O)/C=C/c2cc(C)c(OC(C)(C)C(=O)O)c(C)c2)cc1 has an EC50 of 1 µM (Peroxisome proliferator-activated receptor gamma (PPARG, Homo sapiens, UniProt P37231); receptor activation, agonist, luciferase reporter; serum-free, species human).
N#Cc1ccc(C[C@@H](NC(=O)c2cc3cc([N+](=O)[O-])ccc3[nH]2)C(=O)N2CCc3ccccc32)cc1 has an EC50 of > 50 µM (FPR1; calcium mobilization, agonist; HL-60 transfected with FPR1; inactive up to 50 µM).
